Published values collected from several papers.
Compare with care: the assays were run in different laboratories. Numbers after ± are the reported error.
Organism: Plasmodium falciparum

Compound	assay	test system	conditions	how to read	quantity	value
Cc1cc(Nc2ccc(Cl)cc2)n2nc(C(F)(F)F)nc2n1	parasite growth	Dd2			EC50	35.6 ± 12 nM
CN(C)S(=O)(=O)c1ccccc1-c1ccc2ncnc(Nc3ccc(OCc4cccc(F)c4)c(Cl)c3)c2c1	parasite growth, SYBR Green fluorescence	W2, drug-resistant			EC50	1800 nM
Cc1cc(Cl)ccc1OC(C)C(=O)N1CCc2ccccc21 (stereo not shown)	parasite growth, SYBR Green	3D7			EC50	126 nM
O=S(=O)(c1ccc(-c2ccc3ncnc(Nc4ccc(OCc5cccc(F)c5)cc4)c3c2)cc1)N1CCOCC1	parasite growth, SYBR Green fluorescence	C235 (TM91C235), drug-resistant			EC50	850 nM
COC(=O)C1=CO[C@@H](C)[C@@H]2Cn3ccc4c5ccccc5nc-4c3C[C@H]12		C2B, atovaquone-resistant	48 h	reference: C2B over 3D7	resistance index	0.04
CC(NC(=O)c1cccc(C(c2ccccc2)N2C(=N)NC(C)(C(C)C)CC2=O)c1)c1ccccc1 (stereo not shown)	parasite growth	Dd2-ATV			EC50	5.8 nM
Nc1ncnc2c1c(-c1ccc(Oc3ccccc3)cc1)cn2C1CCCC1		FVO, purified merozoites, erythrocytes	25 µM		merozoite invasion	47%
O=S(=O)(c1cccc(-c2ccc3ncnc(Nc4ccc(OCc5cccc(F)c5)c(Cl)c4)c3c2)c1)N1CCCCC1	parasite growth, SYBR Green fluorescence	W2, drug-resistant			EC50	510 nM
COc1ccccc1-n1ccnc1SCC(=O)Nc1cc(C(F)(F)F)ccc1Cl	parasite growth, SYBR Green	3D7	72 h		EC50	681 nM
C[C@H]1Cc2c([nH]c3cc(Cl)c(F)cc23)[C@@]2(N1)C(=O)Nc1ccc(Cl)cc12	parasite growth	Dd2-NITD609			EC50	9.1 ± 1.4 nM
CN1CCN(S(=O)(=O)c2cccc(-c3ccc4ncnc(Nc5ccc(OCc6cccc(F)c6)c(Cl)c5)c4c3)c2)CC1	parasite growth, SYBR Green fluorescence	W2, drug-resistant			EC50	84 nM
COc1ccccc1-n1c(SCC(=O)Nc2ccccc2F)nc2cccnc21	parasite growth, SYBR Green	3D7			EC50	143 nM
O=C(c1cncc(-c2ccc3ncnc(Nc4ccc(OCc5cccc(F)c5)c(Cl)c4)c3c2)c1)N1CCOCC1	parasite growth, SYBR Green fluorescence	W2, drug-resistant			EC50	630 nM
C[C@H](Oc1ccc(C(=O)c2ccc(F)cc2)cc1)C(=O)N1CCc2ccc(C(F)(F)F)cc21	parasite growth				EC50	22.5 ± 6 nM
O=S(=O)(c1ccc(-c2ccc3ncnc(Nc4ccc(OCc5cccc(F)c5)c(Cl)c4)c3c2)cc1)N1CCOCC1	parasite growth, SYBR Green fluorescence	W2, drug-resistant			EC50	590 nM
CCN(CC)CCCC(C)Nc1ccnc2cc(Cl)ccc12 (stereo not shown)	parasite growth	W2Mef			EC50	586 ± 105 nM
Fc1cccc(COc2ccc(Nc3ncnc4ccc(-c5cccc(CN6CCOCC6)c5)cc34)cc2Cl)c1	parasite growth, SYBR Green fluorescence	W2, drug-resistant			EC50	350 nM
O=C1C(O)=C([C@H]2CC[C@H](c3ccc(Cl)cc3)CC2)C(=O)c2ccccc21	parasite growth	K1			EC50	1 ± 0.2 nM
COc1ccc2cc1Oc1cc3c(cc1OC)CCN(C)C3Cc1ccc(cc1)Oc1c(O)c(OC)cc3c1C(C2)N(C)CC3 (stereo not shown)	parasite growth, stage-specific treatment		12 h, early to late trophozoite stage		IC50	1390 ± 880 nM
O[C@]12C=C(c3nccc4c3[nH]c3ccccc34)[C@@H]3CCN(CCCC/C=C\CC1)C[C@@]31C[C@@H]3/C=C\CCCCN3[C@H]12		D6, chloroquine-sensitive		reference: Vero IC50 over D6 IC50	selectivity index	47
OC(c1cc(C(F)(F)F)nc2c(C(F)(F)F)cccc12)C1CCCCN1 (stereo not shown)	parasite growth	Dd2-ATV			EC50	5 ± 0.9 nM
Cc1nc2c(C#N)cccc2n1-c1ccc(C(=O)NC2CC2)s1	parasite growth, SYBR Green	3D7			EC50	6.73 nM
